Results gathered from unrelated publications.
Protocols differ between the studies behind these lines. ± gives the spread as reported.

| Structure (SMILES) | cell line | test | system | conditions | how to read | IC50 |
| --- | --- | --- | --- | --- | --- | --- |
| CC[C@@H](C)[C@H](N)C(=O)N1Cc2ccccc2C1 | THP-1 CASP1 knock-out | cell viability, CellTiter-Glo |  |  | reference: DMSO | > 60 µM |
| COc1cc2c(O)c3c(c(-c4ccc5c(c4)OCO5)c2cc1OC)C(=O)N(/N=C/c1ccc(Cl)cc1)C3 | HEK293 | endosomal acidification |  |  |  | 9.93 ± 0.14 µM |
| CS(=O)(=O)OCCN(CCBr)c1c(C(=O)NCCO)cc([N+](=O)[O-])cc1[N+](=O)[O-] | sample H B-ALL PDX cells | cytotoxicity |  | BCP-ALL, ex vivo |  | 20.7 µM |
| C#CC[N+]1(CC)CCc2c(sc(NC(=O)c3c(F)c(F)c(F)c(F)c3F)c2C(=O)OCC)C1.[Br-] (stereo not drawn) | J774.A1 | cytotoxicity, resazurin |  | up to 200 µM, 18 h |  | not toxic |
| CC(C)C[C@H](NC(=O)[C@H](CO)NC(=O)[C@H](CO)NC(=O)CNC(=O)[C@@H]1CCCN1C(=O)[C@H](Cc1ccc(O)cc1)NC(=O)[C@H](CC(C)C)NC(=O)[C@H](CO)NC(=O)[C@H](CS)NC(=O)[C@H](CC(C)C)NC(=O)[C@@H](N)CC(C)C)C(=O)O | A-431 | cell viability, MTT |  | 72 h |  | 71.5 ± 7.56 µM |
| COc1cc2c(O)c3c(c(-c4ccc5c(c4)OCO5)c2cc1OC)C(=O)N(/N=C/c1ccccc1)C3 | HEK293 | endosomal acidification |  | 4 h |  | > 10 µM |
| COc1ccc2c(n1)CCN(C(=O)[C@H]1C[C@@H](CC(=O)O)C1)[C@H]2C(=O)Nc1cc(F)c2c(c1)CCC2(C)C | HCC70 and MDA-MB-468 | cell growth, CellTiter-Glo |  | 96 h |  | ≥ 20 µM |
| CN1CCN(S(=O)(=O)c2cc([N+](=O)[O-])ccc2N(CCOS(C)(=O)=O)CCOS(C)(=O)=O)CC1 | sample G B-ALL PDX cells | cell viability | ex vivo | 48 h, with: AKR1C3 inhibitor 1 µM, 1 h pretreatment |  | 22.7 µM |
| COc1cc2c(O)c3c(c(-c4ccc5c(c4)OCO5)c2cc1OC)C(=O)N(/N=C/c1ccc(C#N)cc1)C3 | HEK293 | endosomal acidification |  | 4 h |  | > 10 µM |
| CC(=O)c1c(C)c2cnc(Nc3ccc(C4CCN(CCS(C)(=O)=O)CC4)cn3)nc2n(C2CCCC2)c1=O | lymphoma, colorectal, breast cancer cells | cell proliferation |  | range over tumour cell types |  | 0.143 to 0.545 µM |
| COc1cc2c(OC)c3c(c(-c4ccc5c(c4)OCO5)c2cc1OC)C(=O)OC3 | HEK293 | endosomal acidification |  |  |  | 0.265 ± 0.0586 µM |
| NC(=O)C1CCN(c2ccncc2)CC1 | 7dF3 | WNT reporter gene, inhibitor |  |  |  | > 5 µM |
| N.N.[Cl][Pt][Cl] | A549/DDP cisplatin-resistant | MTT |  | 48 h, non-transfected |  | 66.8 ± 6.26 µM |
| COc1c(C)c2c(c(O)c1C/C=C(\C)CCC(=O)O)C(=O)OC2 | MDA-MB-435 | cell proliferation | skin cancer |  |  | 0.316 µM |
| N.N.O=C([O-])C1(C(=O)[O-])CCC1.[Pt+2] | patient-derived organoid sample A | organoid viability | human | 96 h |  | 96.9 µM |

Excerpt of the above:
| Structure (SMILES) | cell line | test | system | conditions | how to read | IC50 |
| --- | --- | --- | --- | --- | --- | --- |
| N.N.[Cl][Pt][Cl] | A549/DDP cisplatin-resistant | MTT |  | 48 h, non-transfected |  | 66.8 ± 6.26 µM |
